# Assay results of several laboratories.
# Each line is one published result; not all experiments were run side by side. ± marks the error that the study gave.
# Target: Cytochrome P450 3A4 (CYP3A4, Homo sapiens, UniProt P08684)
# Chain of UniProt P08684 (whole entry, looked up): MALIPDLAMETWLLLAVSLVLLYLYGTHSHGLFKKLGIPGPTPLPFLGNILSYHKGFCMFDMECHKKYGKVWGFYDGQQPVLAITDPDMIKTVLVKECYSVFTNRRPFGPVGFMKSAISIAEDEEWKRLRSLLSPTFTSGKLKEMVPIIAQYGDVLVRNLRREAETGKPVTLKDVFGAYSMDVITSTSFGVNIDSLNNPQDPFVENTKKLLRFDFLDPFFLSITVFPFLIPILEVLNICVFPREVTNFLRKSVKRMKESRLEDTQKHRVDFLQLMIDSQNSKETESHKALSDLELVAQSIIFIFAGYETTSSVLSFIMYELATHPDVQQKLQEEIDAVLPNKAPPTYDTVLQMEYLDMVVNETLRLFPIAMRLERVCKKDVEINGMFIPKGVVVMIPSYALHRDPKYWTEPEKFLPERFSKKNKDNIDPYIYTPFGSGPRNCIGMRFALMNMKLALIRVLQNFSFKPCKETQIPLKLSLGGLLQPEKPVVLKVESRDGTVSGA
# Action: inhibitor
Structure (SMILES),test,system,conditions,IC50
COc1ccc2nc(C)cc(OCC(=O)Nc3ccccc3OC)c2c1,enzyme activity,,added: VG substrate,3.4 µM
CC(C)(O)c1ccccc1CC[C@H](c1cccc(/C=C/c2ccc3ccc(Cl)cc3n2)c1)[S+]([O-])CC1(CC(=O)O)CC1 (stereo partly drawn),,human liver microsomes,added: midazolam,9.33 µM
CCc1ccc([C@@H]2C[C@H](C(F)(F)F)n3ncc(C(=O)NCc4ccc(OC)cc4)c3N2)cc1,enzyme activity,,added: VR substrate,> 50 µM
C[C@@H](c1ccn(Cc2ccc(Cl)c(Cl)c2)n1)[C@](O)(Cn1cnnn1)c1ccc(F)cc1F,enzyme activity,"human, liver microsomes",midazolam probe,5.18 µM
O=C(O)c1ccc(/C=C2\SC(=S)N(Cc3cccc(C(F)(F)F)c3)C2=O)cc1,enzyme activity,"human, liver microsomes",midazolam probe,26 µM
CC(C)c1ccc(Cn2ccc([C@H](C)[C@](O)(Cn3cnnn3)c3ccc(F)cc3F)n2)cc1,enzyme activity,"human, liver microsomes",midazolam probe,15.2 µM
Cc1ccc2nc(C(F)(F)F)c(C(=O)NCc3cccc(Cl)c3)n2c1,enzyme activity,,added: VG substrate,3.5 µM
C[C@@H](c1ccn(Cc2ccc(OC(F)(F)F)cc2)n1)[C@](O)(Cn1cnnn1)c1ccc(F)cc1F,enzyme activity,"human, liver microsomes",midazolam probe,19.8 µM
O=C(NC12CC3CC(CC(C3)C1)C2)c1cc2cc(Cl)ccc2[nH]1,enzyme activity,,added: VR substrate,> 50 µM
N=C(N)c1cccc(C[C@H](NS(=O)(=O)c2cccc(-c3ccc(Cl)cc3Cl)c2)C(=O)N2CCC(CCN)CC2)c1,"enzyme activity, fluorometric",human liver microsomes,"15 min, 37 °C",0.39 ± 0.09 µM
c1ccc(C2(CCNC3CCC4(SCCS4)c4ccccc43)CCOC3(CCCC3)C2)nc1 (stereo not drawn),enzyme activity,"human, liver microsomes",testosterone probe,4.84 µM
C[C@H](NCc1ccc(-c2ccc(C(F)(F)F)cc2)cc1)C(N)=O,"enzyme activity, luciferase",,pH 7.4,> 10 µM
